# Results of several laboratories.
# Numbered parts are unrelated; each lists some results of a single study.

# Sample 1 — technique: RNA Bind-n-Seq; molecule type: RNA; medium: in vitro; tested at: not given; reference: input RNA pool; reading: higher = stronger binding
# Target: RING finger protein unkempt homolog, zinc fingers 1-6, GST-SBP tag (UNK, Homo sapiens, UniProt Q9C0B0, residues 30-357)
# Sequence of UniProt Q9C0B0 (30-357, looked up): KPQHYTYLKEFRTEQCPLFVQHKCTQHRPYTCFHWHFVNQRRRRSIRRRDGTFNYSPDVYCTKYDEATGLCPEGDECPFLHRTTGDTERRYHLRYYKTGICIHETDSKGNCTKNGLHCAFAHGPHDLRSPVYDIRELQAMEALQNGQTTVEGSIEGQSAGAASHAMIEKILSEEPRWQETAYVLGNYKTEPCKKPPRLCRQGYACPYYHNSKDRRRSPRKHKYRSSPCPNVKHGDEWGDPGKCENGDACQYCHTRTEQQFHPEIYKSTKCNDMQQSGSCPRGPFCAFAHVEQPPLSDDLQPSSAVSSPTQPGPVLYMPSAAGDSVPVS
# Notes: RNA with constant flanks, human-mouse chimeric sites, ends assumed
# Constant ends, left off below: GGGAGUUCUACAGUCCGACGAUC … CAACAGAGGAUUGAGCAUCA
Oligonucleotide,bound/input enrichment [ratio]
UAACCACAUCAAGAUGGUUGGAAAGCUGAAGCAGAACUUACUCUUGGCGUGUCUGGUGAUUAGUUCUGUGACUGUGUUUUACCUGGGCCAGCAUGCCAUGGAGUGCCAUCACCGAAUAGA,0.418
AGAAUCUGUGACUGGCUUUACUUAAUUGGUCAUUGAUAGCUUAACAAACAUGGAGAUAAGAUUAGAAAUCUUGACAUCAACAGGUAUUAAGCAGAAAAAACCAUGGCCACGUGUCUCCUG,0.125
UUUGUAUUUAUGCUAAGCACACGUGCUGGUGGUCUGGGCAUCAAUCUUGCAACUGCUGAUGUAGUCAUUUUGUAUGACUCAGAUUGGAAUCCCCAAGUUGAUCUUCAGGCUAUGGACCGU,0.113
CUCAUGGCUGCAGAAACAGGAAGUGGAAAAACUGGUGCAUUUAGUAUUCCAGUUAUCCAGAUAGUUUAUGAAACUCUGAAAGACCAACAGGAAGGAAAGAAAGGGAAAACAACUAUUAAA,0.391
UAAGUCCUGUGCCAGCACUUCGCUCAUAAAGUUUUAAAUUCAAGAAAAAUUGUGUUUGUUUCCUGAUUAUUGUAUCCAAUACUUUGCCUAGUAUGUAACUCACUCUUACUGAUAAUAAAA,1.36
CUGUGUGGCUUACUAAAAUGGCUUGUAAAGAAGUUUUUCCAAGCUGUAACCCAUGCUUCCCUUAGAGUUGCUGCAAAAUGUUCUUCCUGAUAUUGAUUUUAUUUGUUAACUGAAGGUCUC,0.786
AAAGUGAUGACUAUGUUUGUACAGCGACAGGUAUUUUCGGAGAGCAAAGAUGAGAUUGCGUUAGUCCUCUAUGGCACAGAUGGCACUGAUAAUGCCCUUGCUGGCAAGGAUCAGUAUCAG,0.187

# Sample 2 — technique: universal PBM; molecule type: double-stranded DNA, one strand shown; medium: in vitro; tested at: 600 nM; reading: higher = stronger binding
# Target: Sal-like protein 4, full length isoform A (SALL4, Homo sapiens, UniProt Q9UJQ4, residues 1-1053)
# Sequence of UniProt Q9UJQ4 (whole entry, looked up): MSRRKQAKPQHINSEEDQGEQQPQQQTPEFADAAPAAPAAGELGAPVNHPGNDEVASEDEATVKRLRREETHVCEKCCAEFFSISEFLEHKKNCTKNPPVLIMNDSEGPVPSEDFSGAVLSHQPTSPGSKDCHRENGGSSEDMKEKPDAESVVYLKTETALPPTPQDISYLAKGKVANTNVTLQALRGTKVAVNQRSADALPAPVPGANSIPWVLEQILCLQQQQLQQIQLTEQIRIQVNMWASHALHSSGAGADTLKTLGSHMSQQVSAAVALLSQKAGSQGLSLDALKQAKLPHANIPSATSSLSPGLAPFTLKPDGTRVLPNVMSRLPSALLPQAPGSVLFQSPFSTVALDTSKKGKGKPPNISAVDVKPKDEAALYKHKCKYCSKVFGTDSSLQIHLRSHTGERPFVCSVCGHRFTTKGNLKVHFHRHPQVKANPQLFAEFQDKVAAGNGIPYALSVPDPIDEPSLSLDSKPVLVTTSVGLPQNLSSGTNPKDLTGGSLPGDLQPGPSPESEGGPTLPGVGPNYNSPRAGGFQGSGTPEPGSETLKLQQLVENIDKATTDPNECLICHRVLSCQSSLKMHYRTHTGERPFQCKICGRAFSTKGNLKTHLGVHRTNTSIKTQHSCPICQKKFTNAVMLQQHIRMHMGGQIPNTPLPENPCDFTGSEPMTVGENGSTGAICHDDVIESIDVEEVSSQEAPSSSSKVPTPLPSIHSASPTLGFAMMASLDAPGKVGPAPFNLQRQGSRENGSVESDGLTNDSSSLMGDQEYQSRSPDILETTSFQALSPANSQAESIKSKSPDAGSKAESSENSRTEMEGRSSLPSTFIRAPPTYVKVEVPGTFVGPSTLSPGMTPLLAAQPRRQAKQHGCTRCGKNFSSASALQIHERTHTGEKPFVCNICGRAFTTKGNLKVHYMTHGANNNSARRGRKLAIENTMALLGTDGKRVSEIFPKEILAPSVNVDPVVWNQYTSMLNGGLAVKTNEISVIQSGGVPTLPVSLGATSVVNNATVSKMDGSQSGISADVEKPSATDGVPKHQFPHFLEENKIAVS
# Notes: 8-mer, flanks averaged, mean of replicates
Oligonucleotide,E-score
ATCAACGG,0.0551
CTGGATAA,0.0341
AGCACGGG,-0.262
AGATACCG,0.00707
GAGTGGAC,-0.138
GGCCAATA,0.0889
AACACTAG,0.134
ATGTGTCG,0.0138
CCTTTCGC,-0.0907

# Sample 3 — technique: RNA Bind-n-Seq; molecule type: RNA; medium: in vitro; tested at: 1 µM; notes: whole 134-nt RNA, ends assumed; together with: 150 mM KCl; reference: input library; reading: higher = stronger binding
# Target: Ras GTPase-activating protein-binding protein 1, C-terminal RGG region (G3BP1, Homo sapiens, UniProt Q13283)
# Sequence of UniProt Q13283 (whole entry, looked up): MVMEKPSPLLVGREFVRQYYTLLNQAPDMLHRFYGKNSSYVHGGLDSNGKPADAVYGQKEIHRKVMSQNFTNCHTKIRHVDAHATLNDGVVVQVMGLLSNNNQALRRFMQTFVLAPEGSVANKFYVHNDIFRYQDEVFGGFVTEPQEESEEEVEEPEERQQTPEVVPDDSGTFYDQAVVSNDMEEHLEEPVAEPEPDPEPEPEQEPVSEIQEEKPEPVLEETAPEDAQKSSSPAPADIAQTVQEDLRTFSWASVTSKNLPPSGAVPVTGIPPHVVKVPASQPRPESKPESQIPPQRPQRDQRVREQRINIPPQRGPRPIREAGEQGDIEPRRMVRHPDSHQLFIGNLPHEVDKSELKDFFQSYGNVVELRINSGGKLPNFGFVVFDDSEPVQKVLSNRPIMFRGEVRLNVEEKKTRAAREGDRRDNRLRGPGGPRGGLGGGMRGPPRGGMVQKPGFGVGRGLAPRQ
# Constant ends, left off below: GGGAGUUCUACAGUCCGACGAUC … UGGAAUUCUCGGGUGUCAAGG
Oligonucleotide,log2 enrichment
AAGUCCUGUGCUACACAUCGUAUGUACCGAAUCGGAAAAAGGUUUUUUUGGAAAGGAAAGUAUUAUGUUACGCCGUUCGGAUCUGCACUU,-2.5
ACCAUGCAGGUGGGCAUCUUUGGGAAGUGGGGCAAGGGGGGUAUAGGGAGGGGGGUAACACUUUGGGAACAGGUGGUCCCAGGUCGUUUC,2.06
UCAAGUCCUGUGCUACACAUCGUAUGUACCGAAUCGGUUUGGUUUGGGGUUUGGGAAAGUAUUAUGUUACGCCGUUCGGAUCUGCACUUC,-1.22
CUCAAGUCCUGUGCUACACAUCGUAUGUACCGAAUCGGGCGGGCGGGGCGGGGAAAGUAUUAUGUUACGCCGUUCGGAUCUGCACUUCCA,2.87
CUGUGCUACACAUCGUAUGUACCGAAUCGGGGAAAAAAAGGGGUUUUUGGGGUUUUUGGGGAAAGUAUUAUGUUACGCCGUUCGGAUCUG,0.538
UGGGAGGUGGAUUUUGUUUAUUUUUUUAGUUCAUUUCCAGGGGUGGGAAUUUUUUUUUAAUAUGUGUCAUGAAUAAAGUUGUUUUUGAAA,3.04
UCAAGUCCUGUGCUACACAUCGUAUGUACCGAAUCGGUUUGGGUUUGGUUUGGGGAAAGUAUUAUGUUACGCCGUUCGGAUCUGCACUUC,-1.07
GUCCUGUGCUACACAUCGUAUGUACCGAAUCGGGGAAAAAGGGAAAAAGGGGAAAAAGGAAAGUAUUAUGUUACGCCGUUCGGAUCUGCA,-1.07
CCUCAAGUCCUGUGCUACACAUCGUAUGUACCGAAUCGGGUGGGGUGGGUGGGAAAGUAUUAUGUUACGCCGUUCGGAUCUGCACUUCCA,1.36
UCCUCAAGUCCUGUGCUACACAUCGUAUGUACCGAAUCGGGUGGUGGGUGGGAAAGUAUUAUGUUACGCCGUUCGGAUCUGCACUUCCAG,1.24
CUGUGCUACACAUCGUAUGUACCGAAUCGGGGUUUUUUUGGGUUUUUUUGGGGUUUUUUUGGAAAGUAUUAUGUUACGCCGUUCGGAUCU,-1.09
UGGCCCUGGUGGCAUGCGGGGAGGAAGAGGUGGCCUCAUGGAUCGUGGUGGUCCCGGUGGAAUGUUCAGAGGUGGCCGUGGUGGAGAAAG,3.41
UACCCUCGUGCCCCUGUUUUUCCUGGCCGUGGUAGUUACUCAAACAGAGGGAACUACAACAGAGGUGGAAUGCCCAACAGAGGGAACUAC,-1.46
CUCAAGUCCUGUGCUACACAUCGUAUGUACCGAAUCGGUUUGGAGGUUUUUGGAAAGUAUUAUGUUACGCCGUUCGGAUCUGCACUUCCA,-0.915

# Sample 4 — target: UBE2T UBC core domain (UniProt Q9NPD8); technique: yeast two-hybrid; medium: yeast; notes: mostly zero background; reference: not given; reading: higher = stronger interaction
# B1: RBCK1 RING domain (UniProt Q9BYM8); chain SLVLNTEPAECPVCYSVLAPGEAVVLRECLHTFCRECLQGTIRNSQEAEVSCPFIDNTYSCSGKLLEREIK
# B2: DZIP3 RING domain (UniProt Q86Y13); chain PDEEEEEEEPCVICHENLSPENLSVLPCAHKFHAQCIRPWLMQQGTCPTCRLHVLLPEEFP
# B3: RNF121 RING domain (UniProt Q9H920); chain MPTKHLSDSVCAVCGQQIFVDVSEEGIIENTYRLSCNHVFHEFCIRGWCIVGKKQTCPYCKEKVDLKRMFS
# B4: ZMIZ2 RING domain (UniProt Q8NF64); chain GTIPGTPGPNGEDGVEQTAIKVSLKCPITFRRIQLPARGHDCRHIQCFDLESYLQLNCERGTWRCPVCNKTALLEGLEVDQYMLGILIYIQNSDYEEITIDPTCSWK
# B5: MDM4 RING domain (UniProt O15151); chain MEDCQNLLKPCSLCEKRPRDGNIIHGRTGHLVTCFHCARRLKKAGASCPICKKEIQLVIKVF
# Residues (chain): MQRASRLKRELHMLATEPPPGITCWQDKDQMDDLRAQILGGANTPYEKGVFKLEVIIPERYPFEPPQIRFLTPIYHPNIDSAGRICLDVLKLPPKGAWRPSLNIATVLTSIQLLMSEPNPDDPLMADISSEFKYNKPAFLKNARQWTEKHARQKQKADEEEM
Molecule,lacZ reporter activity
GSDDEEIPFKCFICRQSFQNPVVTKCRHYFCESCALQHFRTTPRCYVCDQQTNGVFNPA (RNF113A RING domain (UniProt O15541)),0
B1 (RBCK1 RING domain),0
B2 (DZIP3 RING domain),0
B3 (RNF121 RING domain),0
B4 (ZMIZ2 RING domain),0
GSRLQEINDVCAICYHEFTTSARITPCNHYFHALCLRKWLYIQDTCPMCHQKVYIEDDIK (RNF139 RING domain (UniProt Q8WU17)),0
B5 (MDM4 RING domain),0

# Sample 5 — technique: protein-binding microarray; molecule type: double-stranded DNA, one strand shown; medium: in vitro; tested at: 2540 nM top; notes: 60-bp whole probe; together with: salmon DNA 0.4 mg/ml; reference: random background probes; reading: higher = stronger binding; constant ends, left off below: GCCTAGCAC … GTCTTGATTCGCTTGACGCTGCTG
# Target: Interferon regulatory factor 3, full length, phosphomimetic (IRF3, Homo sapiens, UniProt Q14653, residues 1-427, S386D/S396D/S398D/S402D/T404D/S405D)
# Target sequence (chain): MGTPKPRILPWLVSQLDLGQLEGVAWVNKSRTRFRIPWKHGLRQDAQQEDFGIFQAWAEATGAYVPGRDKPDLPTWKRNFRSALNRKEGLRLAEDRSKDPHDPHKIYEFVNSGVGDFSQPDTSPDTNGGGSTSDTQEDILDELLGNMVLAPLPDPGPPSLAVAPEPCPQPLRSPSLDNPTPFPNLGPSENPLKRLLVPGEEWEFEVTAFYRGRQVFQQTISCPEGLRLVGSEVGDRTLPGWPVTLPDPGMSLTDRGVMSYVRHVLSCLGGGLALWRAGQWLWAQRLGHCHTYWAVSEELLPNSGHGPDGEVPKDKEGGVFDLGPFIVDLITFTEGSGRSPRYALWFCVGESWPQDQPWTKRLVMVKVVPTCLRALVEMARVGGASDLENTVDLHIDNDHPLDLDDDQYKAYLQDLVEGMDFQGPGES
Oligonucleotide,fitted relative affinity
TTAGATATCATTCTCGATTAGTGCTAG,2.02 z-score
GATTTTTTTCATATATATATGTGCTAG,1.29 z-score
GACGGCCTGGACACTGGGGACGTGCTA,-1.15 z-score
GACGTTTTCGGGTTTCGGGACGTGCTA,3.41 z-score
TCAGAATTAGGTTTCACACTGTGCTAG,2.39 z-score
TTAGATATCAGTCTCCATTAGTGCTAG,1.87 z-score
GACGGATTGGACTATCGGGACGTGCTA,-0.0268 z-score
TTAGATTTCGGGACTGGACTAGTGCTA,1.34 z-score
TTAGGTATCGGGTATCGCTTAGTGCTA,1.4 z-score
TCATATCTGGGTTCCCCACTGTGCTAG,0.856 z-score
GACGGTTTCCTTCACCTGACGTGCTAG,4.11 z-score
GACAGTATCCTTCTCCTGACGTGCTAG,7.99 z-score
TTAGGTATCGACTATCGCTTAGTGCTA,0.29 z-score
GACGGACTGTTTTTCCTGACGTGCTAG,0.492 z-score
GACGGACTGCTACTGTTGACGTGCTAG,-0.55 z-score
TTAGATTTCATTATCGATTAGTGCTAG,2.54 z-score
CACTCTCTGCTTGTATCTGGGTGCTAG,1.55 z-score
GACGAACTGGGGATTCGAGACGTGCTA,-0.377 z-score
TCACATTGCTTTCTCTTACTGTGCTAG,1.61 z-score
TTAAATATCAGTATCGATTAGTGCTAG,2.17 z-score

# Sample 6 — technique: protein binding microarray; molecule type: double-stranded DNA, one strand shown; medium: in vitro; tested at: not given; reference: not given; reading: higher = stronger binding
# Target: Histone acetyltransferase KAT6A, winged helix 2, GST fusion (KAT6A, Homo sapiens, UniProt Q92794, residues 85-181)
# Notes: 8-mer, flanks averaged, mean of 2 arrays, mostly near background
# Target sequence (chain): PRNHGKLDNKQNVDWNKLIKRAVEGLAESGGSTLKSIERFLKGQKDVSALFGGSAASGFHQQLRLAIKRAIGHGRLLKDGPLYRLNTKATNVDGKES
Oligonucleotide,E-score
AACACTTC,-0.063
AATTTGGG,-0.0723
GATTCTGA,0.0938
GAGTCTAC,-0.13
GTTGGATA,0.0505
ACACATAG,-0.00316
GATTATAA,-0.0166
TCCTACCA,-0.0271
AACGTTCG,-0.00636
CTGCCAGA,0.0083
ATGCACCC,0.122
GTCTGAAC,0.0343

# Some of these lines once more (sample 1):
Oligonucleotide,bound/input enrichment [ratio]
CUGUGUGGCUUACUAAAAUGGCUUGUAAAGAAGUUUUUCCAAGCUGUAACCCAUGCUUCCCUUAGAGUUGCUGCAAAAUGUUCUUCCUGAUAUUGAUUUUAUUUGUUAACUGAAGGUCUC,0.786
UAACCACAUCAAGAUGGUUGGAAAGCUGAAGCAGAACUUACUCUUGGCGUGUCUGGUGAUUAGUUCUGUGACUGUGUUUUACCUGGGCCAGCAUGCCAUGGAGUGCCAUCACCGAAUAGA,0.418
AAAGUGAUGACUAUGUUUGUACAGCGACAGGUAUUUUCGGAGAGCAAAGAUGAGAUUGCGUUAGUCCUCUAUGGCACAGAUGGCACUGAUAAUGCCCUUGCUGGCAAGGAUCAGUAUCAG,0.187
UUUGUAUUUAUGCUAAGCACACGUGCUGGUGGUCUGGGCAUCAAUCUUGCAACUGCUGAUGUAGUCAUUUUGUAUGACUCAGAUUGGAAUCCCCAAGUUGAUCUUCAGGCUAUGGACCGU,0.113
UAAGUCCUGUGCCAGCACUUCGCUCAUAAAGUUUUAAAUUCAAGAAAAAUUGUGUUUGUUUCCUGAUUAUUGUAUCCAAUACUUUGCCUAGUAUGUAACUCACUCUUACUGAUAAUAAAA,1.36
CUCAUGGCUGCAGAAACAGGAAGUGGAAAAACUGGUGCAUUUAGUAUUCCAGUUAUCCAGAUAGUUUAUGAAACUCUGAAAGACCAACAGGAAGGAAAGAAAGGGAAAACAACUAUUAAA,0.391
AGAAUCUGUGACUGGCUUUACUUAAUUGGUCAUUGAUAGCUUAACAAACAUGGAGAUAAGAUUAGAAAUCUUGACAUCAACAGGUAUUAAGCAGAAAAAACCAUGGCCACGUGUCUCCUG,0.125
